Measured values pooled from the literature.
A part holds a random share of what one study measured. Substitutions count along the parent as printed.

Study 1
Target: CCNE2, cyclin fold, Cln2 fusion (human)
Method: yeast growth competition, sequencing
Medium: yeast
Notes: weak parent motif
Relative to: not given
Reading: higher = stronger binding
Starting sequence: ORC1 docking peptide (human); PRARKRLELGNLG
Substitution	normalised enrichment score
PRARKHLELGNLG [R6H]	0.872
PRARKRLELTNLG [G10T]	-0.161
PRARKRLENGNLG [L9N]	0.239
PRNRKRLELGNLG [A3N]	1.19
PRARHRLELGNLG [K5H]	0.306
PRARKRLELINLG [G10I]	0.53
PRARKRLEWGNLG [L9W]	0.998
PRARKRLELGFLG [N11F]	0.547
PRMRKRLELGNLG [A3M]	2.31

Study 2
Target: Ras GTPase-activating protein-binding protein 1, C-terminal RGG region (G3BP1, Homo sapiens, UniProt Q13283)
Sequence of UniProt Q13283 (whole entry, looked up): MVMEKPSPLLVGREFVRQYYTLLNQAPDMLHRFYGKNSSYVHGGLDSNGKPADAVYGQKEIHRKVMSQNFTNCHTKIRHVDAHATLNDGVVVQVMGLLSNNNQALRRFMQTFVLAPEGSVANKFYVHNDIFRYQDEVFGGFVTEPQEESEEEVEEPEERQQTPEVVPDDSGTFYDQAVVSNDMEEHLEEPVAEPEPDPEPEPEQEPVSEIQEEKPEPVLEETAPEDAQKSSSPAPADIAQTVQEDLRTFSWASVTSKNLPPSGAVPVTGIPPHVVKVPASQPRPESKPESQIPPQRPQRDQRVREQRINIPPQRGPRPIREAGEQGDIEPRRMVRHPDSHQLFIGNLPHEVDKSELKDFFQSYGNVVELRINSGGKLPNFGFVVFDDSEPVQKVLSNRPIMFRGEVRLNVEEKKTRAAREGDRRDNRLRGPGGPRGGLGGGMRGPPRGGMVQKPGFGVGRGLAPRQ
Method: RNA Bind-n-Seq
Form: RNA
Medium: in vitro
Tested at: 1 µM
Notes: whole 134-nt RNA, ends assumed
Added: 150 mM KCl
Relative to: input library
Reading: higher = stronger binding
Constant ends, left off below: GGGAGUUCUACAGUCCGACGAUC … UGGAAUUCUCGGGUGUCAAGG
Strand	log2 enrichment
GUCCUGUGCUACACAUCGUAUGUACCGAAUCGGGAAAAAGGGGAAAAAGGGAAAAAGGGAAAGUAUUAUGUUACGCCGUUCGGAUCUGCA	-0.545
UCAAGUCCUGUGCUACACAUCGUAUGUACCGAAUCGGGCCGGGCCGGGGCCGGGGAAAGUAUUAUGUUACGCCGUUCGGAUCUGCACUUC	0.155
UAACUUUAGAGGAGGAUCUGAUGGAUAUGGCAGUGGACGUGGAUUUGGGGAUGGCUAUAAUGGGUAUGGAGGAGGAGCUGGAGGUGGCAA	0.0175
UAGGUAUUUCUGGGAAAAGCCAGCUUCUGUUUGCACUGGUCUUCACAACUCGUUACCUGGAUCUUUUUACUUCAUUUAUUUCAUUGUAUA	-2.2
CCUCAAGUCCUGUGCUACACAUCGUAUGUACCGAAUCGGUGGUGGAAAAAGGAAAGUAUUAUGUUACGCCGUUCGGAUCUGCACUUCCAG	-0.579
ACCAUGCAGGUGGGCAUCUUUGGGAAGUGGCGCAAGGGGGGGAUAGGGAGGGGGGUAACACUUUGGGAACAGGUGGUCCCAGGUCGUUUC	-1.29

Study 3
Target: POU domain, class 5, transcription factor 1, POU domain (Pou5f1, Mus musculus, UniProt P20263, residues 131-289)
Sequence of UniProt P20263 (131-289, looked up): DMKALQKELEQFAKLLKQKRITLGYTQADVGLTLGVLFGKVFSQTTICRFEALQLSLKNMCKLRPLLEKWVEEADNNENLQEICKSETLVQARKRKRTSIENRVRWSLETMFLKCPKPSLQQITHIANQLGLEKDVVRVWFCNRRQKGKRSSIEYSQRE
Method: Spec-seq
Form: double-stranded DNA, one strand shown
Medium: in vitro
Tested at: not given
Notes: whole probe, mean of replicates
Relative to: not given
Reading: lower = stronger binding
Constant ends, left off below: GAGTCGTCTCGTCAGCAC … TCCGTAGAGCACTCAGGTC
Strand	relative binding energy [ln ratio]
ATCTGTA	0.473
ATGCATT	-1.02
ATGGCCA	0.783
ATTAGAA	-0.867
ATTCGTA	0.216
CTATTAA	0.232
GATATAA	0.181
ATGCACG	0.171

Other studies, line by line
Substance	target	assay	test system	setting	scale	measurement	value
PhoQ, residues 284 288 289 292 302 303 SSLVEF	PhoP, residues 12 14 15 18 19 NQAHL (Escherichia coli, UniProt P23836)	Sort-seq, measured: YFP reporter	E. coli	PhoQ-PhoP variant library, added: 10 µM Mg2+	relative to: high Mg2+ state, higher = stronger signaling	fold induction	1.76

Excerpt of the above (study 1):
Substitution	normalised enrichment score
PRARKHLELGNLG [R6H]	0.872
PRARKRLELINLG [G10I]	0.53
PRARKRLELGFLG [N11F]	0.547
